Results from different studies.
Every numbered part comes from another study and shows a few of its results, in no order.

Block 1 — method: RNA Bind-n-Seq; form: RNA; medium: in vitro; concentration: 365 nM; relative to: no-protein control; direction: higher = stronger binding
Target: RNA binding protein fox-1 homolog 2, RRM domain, GST-SBP tag (RBFOX2, Homo sapiens, UniProt O43251-10, residues 100-194)
Notes: natural RNA segment, single round, ends assumed
All sequences stand within: GGGAGUUCUACAGUCCGACGAUC … UGGAAUUCUCGGGUGCCAA
Residues (chain): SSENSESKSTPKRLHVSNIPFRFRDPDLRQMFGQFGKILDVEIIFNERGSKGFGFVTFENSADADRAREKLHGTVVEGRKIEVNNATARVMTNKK
Oligonucleotide	RBNS enrichment (R)
CUGGGACACAGAUCCUUGUCUUCAGCACCUUCCAAGGAGCCAACUUUUAUUCCCUUUCCUCUCUCCCCUCCCCACCUCGCUUCUUCCCAAUUUAGUAACUUAGAUGCUUC	1.24
AGUGUUGAUACCUGCCAUGUGUGGAGACAGUGUAAAUUCUACAUGAGUGUGAAACAAGGCAAGUCUCAGACCAGCAAUAAAUUAUUCAGUUUGGCUAACCUUAUUUUGUG	0.493
CAACUAUGCACACAGCACUCGCUCUUAGCUCCUCUGUCCGGGCUACUAGGAGUGAGACCAGCUUCUGGCAACUGCCCCAGCUCCAGGCCAUCCCAUAGCCCCUCCUCUUC	0.441
CGCCCGGCUCUGUUCAUCCUUUUAAAGGUAGAUCUUUUAUAACAUCCUUUGCCACCUUGAGAUGAUUUAUAGGUAAUAUAAUCUACAUUUGAGUUUAUUCAGACUUAAUU	0.346
UUUUUGUGUUAGUGUAUCAUAUAAUUGAAUUUGAACAAGAUACAUAUUUUUCUGCAUACAAAUUUAUGAAGCUGGAGUCUACCAAACACAGCUUUAGUCACAAAAGUUAG	1.38
UCUACUCCCUCUGAGAGUUUUCAACAUCAGUUGAUUGAGCUUCAGGCUUUCCAACGUUAUCCCUGUAGAGAUCAUCUUUACAGUUCCUCGGGAAAAUGUGAAUGUGCCGC	0.48
UUGUCAGCAGGAGCCGUGGUCCAGCCCAGCACCUGUGCUCUCGUAGCCGAGGCCAGCCGUGUUGGGAAGAGAGCCAUGCCAAGGGUCCAGGCUGCUGUAGUCCACCUGUG	0.382
CAAUUCUGUGAAGAAAGUCAUUGGUAGCUUGAUGGGGAUGGCAUUGAAUCUGUAAAUUACCUUGGGCAGUAUGGCCAUUUUCACAAUAUUGAUUCUUCCUACCCAAGAGC	0.583
UGAUGGUGUACUCUGCCCUGCGCAUCCCACCCGAGGAUGAGGGAACAUGGGGGGGCCCCUGGGCCUGGGGUGCCCUCCCGAUCUCCUCGUCCCGUAUUUCUCCAUCUCCA	0.352
CCACUGAGUACCAGGGGCUGGGCUCCCUGAUGACACCCACCCUGUGCCAUCACCAUAACCUCUGGGGACCCCAACCUCAGAGGCAGCUUCAAGUGCCUUUUGCUGCGCAC	0.433
CUCUGCCUCAGCCUUACACCCAAGCAGUAGGUCUGUGCUCUCCCUGUCUCUAGGUCGCUGAGAGAGGUGCUUUUCUUCAUAAAACCUUUGGGGUUUGGAUUUCCCCAGGA	0.372
AAAAAUAGGUGGUAAGCUUUCCUUCUUUCCUUAUUUUGUGUGAUGCCUUAAACUGAAAAGUUAAAAAUUGAUGGAUUGUAGCAUUCCCAUAAUCUCCCCCUUCUUUUUUU	1.57

Block 2 — method: RNA Bind-n-Seq; form: RNA; medium: in vitro; concentration: 1 µM; notes: whole 134-nt RNA, ends assumed; together with: 150 mM KCl; relative to: input library; direction: higher = stronger binding
Target: Ras GTPase-activating protein-binding protein 1, C-terminal RGG region (G3BP1, Homo sapiens, UniProt Q13283)
UniProt Q13283, sequence (whole entry, looked up): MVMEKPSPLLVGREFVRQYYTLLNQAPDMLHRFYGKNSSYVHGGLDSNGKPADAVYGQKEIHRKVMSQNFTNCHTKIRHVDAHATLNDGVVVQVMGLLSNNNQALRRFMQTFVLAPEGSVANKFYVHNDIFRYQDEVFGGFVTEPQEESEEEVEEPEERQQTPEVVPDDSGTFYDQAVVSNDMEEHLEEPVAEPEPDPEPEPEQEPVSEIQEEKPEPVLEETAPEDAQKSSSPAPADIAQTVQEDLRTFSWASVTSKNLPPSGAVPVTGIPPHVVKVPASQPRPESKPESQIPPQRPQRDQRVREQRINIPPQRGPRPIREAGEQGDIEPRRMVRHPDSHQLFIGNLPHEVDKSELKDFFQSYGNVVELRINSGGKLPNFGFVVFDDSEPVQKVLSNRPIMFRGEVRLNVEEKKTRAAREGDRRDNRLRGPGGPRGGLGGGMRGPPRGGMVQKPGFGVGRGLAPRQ
All sequences stand within: GGGAGUUCUACAGUCCGACGAUC … UGGAAUUCUCGGGUGUCAAGG
Oligonucleotide	log2 enrichment
UGGCCCUGGUGGCAUGCGGGGAGGAAGAGGUGGCCUCAUGGAUCGUGGUGGUCCCGGUGGAAUGUUCAGUGGUGGCCGUGGUGGAGACAG	3.86
CAAGUCCUGUGCUACACAUCGUAUGUACCGAAUCGGGUGGGAGGGAAAAAAAGGGAAAGUAUUAUGUUACGCCGUUCGGAUCUGCACUUC	0.152
GUCCUGUGCUACACAUCGUAUGUACCGAAUCGGGGUUUUUGGGGUGGGGAAAAAGGGGAAAGUAUUAUGUUACGCCGUUCGGAUCUGCAC	1.67
CUCAAGUCCUGUGCUACACAUCGUAUGUACCGAAUCGGUUGGGUUGGGUUGGGGAAAGUAUUAUGUUACGCCGUUCGGAUCUGCACUUCC	0.196
AAGUCCUGUGCUACACAUCGUAUGUACCGAAUCGGAAAAAGGAAAAAGGAAAAAGGAAAGUAUUAUGUUACGCCGUUCGGAUCUGCACUU	-1.91
GUCCUGUGCUACACAUCGUAUGUACCGAAUCGGGGUGGGGUUUGGGGAAAAAAAGGGGAAAGUAUUAUGUUACGCCGUUCGGAUCUGCAC	0.857
UGGGAGGUGGAUUUUGUUUAUUUUUUUGGCUCAUUUCCAGGGGUGGGAAUUUUUUUUUAAUAUGUGUCAUGAAUAAAGUUGUUUUUGAAA	3.86
AGUCCUGUGCUACACAUCGUAUGUACCGAAUCGGGGUUUGGGGUGGGGUUUUUGGGGAAAGUAUUAUGUUACGCCGUUCGGAUCUGCACU	1.06
AGGACGUGCAGAACUUCCUCUCUGACUGCACGAUUCAUGAUGGGGCCGCAGGUGUCCAUUUCAUCUACACUAGAGAGGGCAGGCAGAGUG	-0.0876
ACCAUGCAGGUGGGCAUCUUUGGGAAGUGGGGCAAGGGGGGGAUAGGGAGGGGGGUAACACUUUGGCAACAGGUGGUCCCAGGUCGUUUC	2.24
UAACUUUAGAGGAGGAUCUGAUGGAUGUGGCAGUGGACGUGGAUUUGGGGAUGGCUAUAAUGGGUAUGGAGGAGGACCUGGAGGUGGCAA	-1.52
UAACUUUUGAGGAGGAUCUGAUGGAUAUGGCAGUGGACGUGGAUUUGGGGAUGGCUAUAAUGGGUAUGGAGGAGGACCUGGAGGUGGCAA	-1.03
CCUGUGCUACACAUCGUAUGUACCGAAUCGGGGUUUUUGGGGUUUUUGGGGAAAAAGGGGAAAGUAUUAUGUUACGCCGUUCGGAUCUGC	0.146
UAACUUUAGAGGAGGAUCUGAUGGAUAUGGCAGUGGACGUGGAUUUGGGGAUGGCUAUAAUGUGUAUGGAGGAGGACCUGGAGGUGGCAA	-0.712

Block 3 — method: protein binding microarray; form: double-stranded DNA, one strand shown; medium: in vitro; concentration: not given; relative to: not given; direction: higher = stronger binding
Target: Histone acetyltransferase KAT6A, both winged helices, GST fusion (KAT6A, Homo sapiens, UniProt Q92794, residues 1-181)
Notes: 8-mer, flanks averaged, mean of 2 arrays, mostly near background
Construct (chain): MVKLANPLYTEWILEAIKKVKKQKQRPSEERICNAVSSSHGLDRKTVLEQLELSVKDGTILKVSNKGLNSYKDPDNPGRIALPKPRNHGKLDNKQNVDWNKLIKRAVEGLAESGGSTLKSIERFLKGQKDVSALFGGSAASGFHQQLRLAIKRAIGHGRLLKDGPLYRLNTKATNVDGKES
Oligonucleotide	E-score
TACAGGGA	-0.175
ACCCCTCG	-0.12
CTCTGTGC	-0.0486
GATCGATA	0.0333
CGCGCACC	0.262
AGACCCCT	-0.283
ATCATACA	0.0312
ACCAGTCT	0.0288
CCCATATA	0.0381
CCCAGGCA	-0.301
GACGTCTC	-0.0326
AATCGATT	0.0982
CTTACAGA	-0.0647
ACGAACTG	-0.0527
ATTGGCCA	-0.106
ACAGAAGT	-0.067

Block 4 — method: universal PBM; form: double-stranded DNA, one strand shown; medium: in vitro; concentration: 600 nM; direction: higher = stronger binding
Target: Sal-like protein 4, full length isoform A (SALL4, Homo sapiens, UniProt Q9UJQ4, residues 1-1053)
UniProt Q9UJQ4, sequence (whole entry, looked up): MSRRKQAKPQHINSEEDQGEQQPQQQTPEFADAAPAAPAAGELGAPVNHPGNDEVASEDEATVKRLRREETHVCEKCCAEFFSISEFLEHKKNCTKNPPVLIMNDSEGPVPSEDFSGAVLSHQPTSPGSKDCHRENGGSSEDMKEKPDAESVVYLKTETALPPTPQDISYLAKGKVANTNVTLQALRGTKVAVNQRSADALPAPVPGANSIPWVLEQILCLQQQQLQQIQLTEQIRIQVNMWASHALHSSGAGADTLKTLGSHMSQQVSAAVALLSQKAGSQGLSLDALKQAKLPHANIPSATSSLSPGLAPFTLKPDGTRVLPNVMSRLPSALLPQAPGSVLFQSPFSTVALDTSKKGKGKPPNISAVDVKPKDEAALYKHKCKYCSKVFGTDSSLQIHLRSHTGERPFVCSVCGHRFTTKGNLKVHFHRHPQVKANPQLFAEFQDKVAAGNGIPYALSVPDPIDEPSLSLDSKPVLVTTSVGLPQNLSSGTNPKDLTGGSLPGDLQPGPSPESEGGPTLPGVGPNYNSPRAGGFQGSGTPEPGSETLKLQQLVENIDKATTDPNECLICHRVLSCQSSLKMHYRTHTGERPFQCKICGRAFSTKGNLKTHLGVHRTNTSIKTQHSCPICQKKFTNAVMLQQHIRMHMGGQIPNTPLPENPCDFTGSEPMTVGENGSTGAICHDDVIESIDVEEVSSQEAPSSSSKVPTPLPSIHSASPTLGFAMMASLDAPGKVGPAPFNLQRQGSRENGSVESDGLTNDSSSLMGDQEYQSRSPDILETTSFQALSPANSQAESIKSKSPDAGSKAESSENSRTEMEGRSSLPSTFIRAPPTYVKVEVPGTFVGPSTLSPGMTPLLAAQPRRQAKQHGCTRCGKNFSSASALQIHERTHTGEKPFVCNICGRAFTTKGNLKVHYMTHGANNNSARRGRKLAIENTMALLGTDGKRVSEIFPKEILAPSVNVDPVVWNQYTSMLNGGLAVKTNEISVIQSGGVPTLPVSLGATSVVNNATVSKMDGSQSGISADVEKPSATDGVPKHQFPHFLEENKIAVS
Notes: 8-mer, flanks averaged, mean of replicates
Oligonucleotide	E-score
AGAAAACT	0.0727
AAAGGTTA	0.107
ACTTGCTG	0.0144
CTCCTGGA	-0.218
ACTAACAT	0.182
CCTATGAG	0.0365
GACTTCCC	-0.134
CCTCGTGC	-0.0968
CCGTTCCC	-0.275
GGCCGAGA	-0.227
AATTGCTG	0.147
CGACGAAG	-0.0629
CATCTGCC	-0.27
ATTAGGTC	0.226
CAGGAGGC	-0.185
CTCCATTC	-0.0981

Block 5 — method: RNA Bind-n-Seq; form: RNA; medium: in vitro; concentration: not given; notes: RNA with constant flanks, ends assumed; relative to: input RNA pool; direction: higher = stronger binding
Target: RING finger protein unkempt homolog, zinc fingers 1-6, GST-SBP tag (UNK, Homo sapiens, UniProt Q9C0B0, residues 30-357)
All sequences stand within: GGGAGUUCUACAGUCCGACGAUC … CAACAGAGGAUUGAGCAUCA
Residues (chain): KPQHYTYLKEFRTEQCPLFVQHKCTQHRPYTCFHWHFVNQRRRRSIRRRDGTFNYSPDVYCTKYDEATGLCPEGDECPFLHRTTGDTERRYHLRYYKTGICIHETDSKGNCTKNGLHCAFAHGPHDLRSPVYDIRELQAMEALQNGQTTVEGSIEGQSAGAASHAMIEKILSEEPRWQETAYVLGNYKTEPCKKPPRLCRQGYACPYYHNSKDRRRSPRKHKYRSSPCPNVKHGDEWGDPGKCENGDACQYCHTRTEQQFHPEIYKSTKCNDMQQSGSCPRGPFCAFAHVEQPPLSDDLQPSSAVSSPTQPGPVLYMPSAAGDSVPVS
Oligonucleotide	bound/input enrichment [ratio]
UUGGAAGGACCAGAGCCUAAUCAACUGAAACCAUUAGUCAUACAGGCUAUGCCCACCCUAACCGAACUAAUGAAAGACCCCAGUGUAGUUGUUCGAGACACAACAGCGUGGACUGUGGGC	0.186
ACCACCGGAGAAUUCCUGGGGCGCACCGCCAAGAGCUGGGGUUUGAUCUUGCUCUUCUACCCCGUUUUUUAUGGGUUCCUGGCUGCACUCUUCUCAUUCACGAUGUGGGUUAUGCUUCAG	0.209
CCAGGCAGAGGAGAUAUGGAACAGAAUGACUCUGACAACCGUAGAAUAAUUCGCUAUCCAGACCGUCAUCAACUUUUUGUUGGUAACUUGCCACAUGAUAUUGAUGAAAAUGAGCUAAAG	0.558
UCCACAACAGGUUCCUGACGGAGACUUCGCCCUUCAUGUGGUCCAACCUGGGCAUUGGCCCCGCUAUCUCCCUGUCUGUGGUUGGGGCAGCCUGGGGCAUCUAUAUUACCGGCUCCUCCA	0.0909
AAGGUGCCCUUAUUGCUUCCAAAUGUUUCUGCUUUGGAAUCUCAAAUAGAAAUGGGCAACACCGUUAAACCCAAAGUACUUACGAAAGAAGCAGAGGAAAAACUUCCUUCUGAUACAGAG	0.155
AAGAAGAGAAGGAAGAUGAAAUCUCAUUAGAAGAUCUAAUUGAAAGAGAGCGUUCUGCCCCCGGUCCAAAUGUUACCAAAAUCACUCUAGAGUCUUUUCUCGCGUGGAAGAAGAGGAAAA	0.994
AGCAAAAAUCAAAUUAAAGUAGAUCUUGUAGAUGAGAAUUUUACAGAAUUAAGAGGAGAAACCGCAGGACCUCCAGACACACCGUAUGAAGGUGGAAGAUAUCAACUAGAGAUAAAAAUA	2.86
GCUCACAGCAUCCCAGUAACUGAUGGCAUGUUUGUCUUUAUGUAAACUAUAUUGAAAUUUUCCGGGGCUAUUUUCCAUUAUGUCUGAACCUACUUUUGAUCUGAAAGCUUAACUUUAUAA	0.733
ACCCCCUUCGCCGGUACCGGGCUCUUCUUCGGAAAGAUGUCGGACACCGCAGUGGCUGACACCCGGCGCCUUAACUCGAAGCCCCAAGACCUGACCGACGCUUACGGGCCGCCCAGUAAC	0.118
CUGCAUUAUUUGACCAGAGUUGAAGUGACAGAAUUUGAAGAUAUUAAAUCAGGUUACAGAACCGAUUUUUAUUUUGAUGAAAAUCCUUACUUUGAAAAUAAAGUUCUCUCCAAAGAAUUU	0.116
UUUAUGUAUAUGAGUACACUGCAGCUGUACAGAUGGUUAUGAGCCAUCGUGGUUGCUGAGAACCGAACUCAAGACCUCUGCUUGCUCAGCCCCGCUCCCUCGCUGUGUCCCAAAGAUUUA	0.223

Block 6 — method: RNAcompete; form: RNA; medium: in vitro; concentration: 20 nM; notes: 7-mer, probes averaged, single round; relative to: mean of 7-mers; direction: higher = stronger binding
Target: PABPC1L2, full length, GST fusion (mouse, UniProt A0ABA7IW68)
Construct (chain): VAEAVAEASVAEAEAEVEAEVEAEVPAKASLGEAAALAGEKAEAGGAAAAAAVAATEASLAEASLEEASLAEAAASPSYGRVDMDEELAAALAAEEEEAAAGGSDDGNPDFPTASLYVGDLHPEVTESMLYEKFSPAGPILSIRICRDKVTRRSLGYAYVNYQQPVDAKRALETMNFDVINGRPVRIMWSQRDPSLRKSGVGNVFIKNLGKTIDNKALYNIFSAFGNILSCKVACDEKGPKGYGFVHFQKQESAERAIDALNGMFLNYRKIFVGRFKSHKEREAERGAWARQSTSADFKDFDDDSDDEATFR
Oligonucleotide	7-mer Z-score
GCCUCUA	-0.329
CUUGCGU	-0.369
CUAACCG	-0.246
ACUAACA	0.046
CACGCCU	-0.202
AUCUGCG	-0.182
GGGCCAG	0.387
CCAAGGC	-0.0373
CAUGUCU	-0.202
ACUGAUU	-0.0409
AUCAGGU	-0.104
GUUGACU	-0.168
UUCAUAA	-0.0373
UAAAUAG	1.79
CUUCGGA	-0.269
UGUAUUG	-0.222
AACGUAG	0.0478
GUCUGAU	-0.255
ACCUUAU	-0.215

Some of these lines once more (block 6):
Oligonucleotide	7-mer Z-score
ACUAACA	0.046
GUUGACU	-0.168
UGUAUUG	-0.222
AUCAGGU	-0.104
AUCUGCG	-0.182
